Results from different studies.
Each numbered part is a random draw from the data of one study; scales do not carry over between parts. Several values in a cell are separate wells, animals, samples, runs or records.
Chain of UniProt O14976 (whole entry, looked up): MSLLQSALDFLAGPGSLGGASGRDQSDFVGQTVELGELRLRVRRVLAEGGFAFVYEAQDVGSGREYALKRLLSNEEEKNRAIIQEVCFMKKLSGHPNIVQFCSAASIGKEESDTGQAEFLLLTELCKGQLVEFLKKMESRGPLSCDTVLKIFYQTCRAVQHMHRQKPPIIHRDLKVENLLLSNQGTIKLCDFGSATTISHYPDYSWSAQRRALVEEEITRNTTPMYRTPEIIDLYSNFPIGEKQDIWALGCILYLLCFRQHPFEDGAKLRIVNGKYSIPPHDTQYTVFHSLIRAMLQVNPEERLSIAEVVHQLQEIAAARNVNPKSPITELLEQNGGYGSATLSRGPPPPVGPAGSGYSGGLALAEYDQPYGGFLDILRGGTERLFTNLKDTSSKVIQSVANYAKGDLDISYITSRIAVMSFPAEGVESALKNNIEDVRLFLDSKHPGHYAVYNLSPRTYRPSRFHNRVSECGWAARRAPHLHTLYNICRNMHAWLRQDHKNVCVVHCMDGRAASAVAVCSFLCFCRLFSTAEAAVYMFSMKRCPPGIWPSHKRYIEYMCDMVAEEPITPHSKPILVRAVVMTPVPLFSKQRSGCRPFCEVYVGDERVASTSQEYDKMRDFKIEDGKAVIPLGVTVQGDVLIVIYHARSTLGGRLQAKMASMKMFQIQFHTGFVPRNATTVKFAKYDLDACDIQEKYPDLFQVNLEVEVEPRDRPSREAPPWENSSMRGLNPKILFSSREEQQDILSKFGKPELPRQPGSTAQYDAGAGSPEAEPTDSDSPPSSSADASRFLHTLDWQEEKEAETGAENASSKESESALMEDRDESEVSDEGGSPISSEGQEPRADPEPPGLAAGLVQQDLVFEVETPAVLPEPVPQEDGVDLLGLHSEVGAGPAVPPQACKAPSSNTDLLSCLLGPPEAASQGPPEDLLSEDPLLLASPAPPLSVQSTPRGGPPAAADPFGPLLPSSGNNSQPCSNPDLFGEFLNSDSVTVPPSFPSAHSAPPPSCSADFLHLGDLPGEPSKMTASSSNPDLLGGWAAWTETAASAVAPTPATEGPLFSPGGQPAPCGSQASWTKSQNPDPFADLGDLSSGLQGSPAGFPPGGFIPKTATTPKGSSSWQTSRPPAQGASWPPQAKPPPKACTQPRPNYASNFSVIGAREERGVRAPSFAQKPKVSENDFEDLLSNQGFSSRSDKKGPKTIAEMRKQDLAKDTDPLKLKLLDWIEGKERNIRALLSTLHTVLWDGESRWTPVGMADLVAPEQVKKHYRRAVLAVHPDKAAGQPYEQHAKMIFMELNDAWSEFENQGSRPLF
Chain of UniProt O94921 (whole entry, looked up): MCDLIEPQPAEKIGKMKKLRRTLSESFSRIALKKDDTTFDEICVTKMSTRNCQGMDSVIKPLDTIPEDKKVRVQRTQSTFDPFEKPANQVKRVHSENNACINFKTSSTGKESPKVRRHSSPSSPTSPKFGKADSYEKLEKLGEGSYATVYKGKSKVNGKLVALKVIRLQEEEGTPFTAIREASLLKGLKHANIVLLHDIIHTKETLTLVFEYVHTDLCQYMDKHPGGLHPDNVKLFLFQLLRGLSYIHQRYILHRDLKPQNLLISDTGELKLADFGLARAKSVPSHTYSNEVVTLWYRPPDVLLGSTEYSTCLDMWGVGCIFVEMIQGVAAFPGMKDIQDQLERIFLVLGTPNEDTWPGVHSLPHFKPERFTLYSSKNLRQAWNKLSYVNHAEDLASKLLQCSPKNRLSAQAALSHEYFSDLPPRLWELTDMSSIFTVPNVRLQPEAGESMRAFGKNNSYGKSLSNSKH
Chain of UniProt P51817 (whole entry, looked up): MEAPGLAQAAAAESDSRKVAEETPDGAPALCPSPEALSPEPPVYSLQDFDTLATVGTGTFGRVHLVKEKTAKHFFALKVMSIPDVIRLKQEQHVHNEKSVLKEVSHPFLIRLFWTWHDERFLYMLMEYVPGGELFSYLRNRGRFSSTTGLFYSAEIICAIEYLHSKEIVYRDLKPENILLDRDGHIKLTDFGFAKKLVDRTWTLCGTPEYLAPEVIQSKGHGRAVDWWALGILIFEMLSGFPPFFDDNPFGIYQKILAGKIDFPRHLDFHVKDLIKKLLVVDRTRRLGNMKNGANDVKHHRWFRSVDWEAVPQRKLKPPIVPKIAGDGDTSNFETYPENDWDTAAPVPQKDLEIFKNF
Chain of UniProt O43293 (whole entry, looked up): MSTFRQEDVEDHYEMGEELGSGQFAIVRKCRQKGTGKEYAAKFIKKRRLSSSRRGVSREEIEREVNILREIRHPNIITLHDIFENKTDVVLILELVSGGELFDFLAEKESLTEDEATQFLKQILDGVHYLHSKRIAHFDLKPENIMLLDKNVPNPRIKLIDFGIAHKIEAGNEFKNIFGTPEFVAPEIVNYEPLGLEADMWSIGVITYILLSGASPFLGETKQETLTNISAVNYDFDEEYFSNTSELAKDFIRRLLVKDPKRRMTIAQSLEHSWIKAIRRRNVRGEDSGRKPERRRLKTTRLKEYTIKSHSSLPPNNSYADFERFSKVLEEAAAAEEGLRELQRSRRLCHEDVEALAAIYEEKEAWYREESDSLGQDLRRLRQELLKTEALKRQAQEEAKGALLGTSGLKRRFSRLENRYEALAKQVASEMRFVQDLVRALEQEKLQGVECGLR
Chain of UniProt P07333 (whole entry, looked up): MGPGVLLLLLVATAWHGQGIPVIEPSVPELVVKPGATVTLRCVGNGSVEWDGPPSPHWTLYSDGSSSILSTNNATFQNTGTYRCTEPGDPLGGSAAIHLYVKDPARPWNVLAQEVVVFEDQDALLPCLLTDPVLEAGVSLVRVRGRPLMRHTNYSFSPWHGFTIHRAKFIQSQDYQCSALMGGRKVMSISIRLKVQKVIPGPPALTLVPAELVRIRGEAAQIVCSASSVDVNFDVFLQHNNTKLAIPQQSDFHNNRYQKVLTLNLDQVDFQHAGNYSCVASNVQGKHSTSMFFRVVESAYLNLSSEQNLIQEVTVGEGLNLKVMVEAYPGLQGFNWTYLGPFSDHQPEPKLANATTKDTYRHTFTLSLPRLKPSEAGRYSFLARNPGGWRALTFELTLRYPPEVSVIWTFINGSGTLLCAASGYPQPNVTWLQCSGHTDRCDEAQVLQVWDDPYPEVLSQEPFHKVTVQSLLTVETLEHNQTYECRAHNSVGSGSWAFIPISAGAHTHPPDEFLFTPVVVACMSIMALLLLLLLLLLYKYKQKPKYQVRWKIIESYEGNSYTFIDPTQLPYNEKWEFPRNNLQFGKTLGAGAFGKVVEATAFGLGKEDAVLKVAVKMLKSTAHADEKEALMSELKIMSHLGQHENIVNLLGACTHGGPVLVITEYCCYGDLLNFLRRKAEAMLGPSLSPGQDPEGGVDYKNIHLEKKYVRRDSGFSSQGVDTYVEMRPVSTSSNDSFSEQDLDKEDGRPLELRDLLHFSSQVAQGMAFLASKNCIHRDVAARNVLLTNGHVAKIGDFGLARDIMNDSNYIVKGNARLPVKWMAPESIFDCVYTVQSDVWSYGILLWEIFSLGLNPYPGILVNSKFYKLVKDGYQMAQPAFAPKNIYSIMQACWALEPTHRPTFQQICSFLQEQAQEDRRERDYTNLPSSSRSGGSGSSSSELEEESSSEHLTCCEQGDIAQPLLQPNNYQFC
Chain of UniProt Q8IW41 (whole entry, looked up): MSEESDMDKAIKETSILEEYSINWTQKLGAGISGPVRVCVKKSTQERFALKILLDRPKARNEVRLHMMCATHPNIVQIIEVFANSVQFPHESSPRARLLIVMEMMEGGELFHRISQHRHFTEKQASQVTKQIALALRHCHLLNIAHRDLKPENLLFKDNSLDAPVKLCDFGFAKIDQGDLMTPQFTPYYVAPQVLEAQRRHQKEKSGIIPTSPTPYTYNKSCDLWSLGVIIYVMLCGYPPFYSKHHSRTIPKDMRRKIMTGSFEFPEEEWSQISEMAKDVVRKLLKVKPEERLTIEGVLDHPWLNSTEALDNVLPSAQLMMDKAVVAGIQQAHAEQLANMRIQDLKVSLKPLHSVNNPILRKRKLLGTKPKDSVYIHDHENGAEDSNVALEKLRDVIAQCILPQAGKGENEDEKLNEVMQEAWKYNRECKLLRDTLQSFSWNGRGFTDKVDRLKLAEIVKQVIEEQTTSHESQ

Sample 1 — technique: competition with immobilised ligand; concentration: 1 µM
Structure (SMILES): CC1=C(C#N)[C@@H](c2ccc3[nH]nc(C)c3c2)C(C#N)=C(c2ccc(Cl)cc2)N1
It gave 100% for remaining binding (PDGFRB (Homo sapiens, UniProt P09619); cell-free assay).
It gave 99.4% for remaining binding (DDR2 (Homo sapiens, UniProt Q16832); cell-free assay).
The remaining binding was 96.3% (KDR (Homo sapiens, UniProt P35968); cell-free assay).
For FER (Homo sapiens, UniProt P16591); cell-free assay: remaining binding read 97.9%.
It gave 100% for remaining binding (Macrophage colony-stimulating factor 1 receptor, autoinhibited (CSF1R, Homo sapiens, UniProt P07333); cell-free assay).
For Tyrosine-protein kinase ABL1, phosphorylated (ABL1, Homo sapiens, UniProt P00519, Y253F); cell-free assay: remaining binding read 100%.
The remaining binding was 100% (WEE2 (Homo sapiens, UniProt P0C1S8); cell-free assay).
The remaining binding was 100% (MAPKAPK5 (Homo sapiens, UniProt Q8IW41); cell-free assay).
It gave 100% for remaining binding (ABL2 (Homo sapiens, UniProt P42684); cell-free assay).
The remaining binding was 94.4% (CDK14 (Homo sapiens, UniProt O94921); cell-free assay).
The remaining binding was 100% (Cyclin-dependent kinase 4, with cyclin D3 (CDK4, Homo sapiens, UniProt P11802); cell-free assay).
It gave 100% for remaining binding (VRK2 (Homo sapiens, UniProt Q86Y07); cell-free assay).
DAPK3 (Homo sapiens, UniProt O43293); cell-free assay — remaining binding: 100%.
For CDK2 (Homo sapiens, UniProt P24941); cell-free assay: remaining binding read 100%.
The remaining binding was 91.7% (CSNK1E (Homo sapiens, UniProt P49674); cell-free assay).
For DCLK2 (Homo sapiens, UniProt Q8N568); cell-free assay: remaining binding read 97.9%.
For GAK (Homo sapiens, UniProt O14976); cell-free assay: remaining binding read 100%.
For PRKX (Homo sapiens, UniProt P51817); cell-free assay: remaining binding read 100%.
ACVR2B (Homo sapiens, UniProt Q13705); binding — remaining binding: 100%.

Sample 2 — effect on: enzyme activity; mode: inhibitor; concentration: 10 µM
Target: Calcium/calmodulin-dependent protein kinase type II subunit alpha (CAMK2A, Homo sapiens, UniProt Q9UQM7)
Chain of UniProt Q9UQM7 (whole entry, looked up): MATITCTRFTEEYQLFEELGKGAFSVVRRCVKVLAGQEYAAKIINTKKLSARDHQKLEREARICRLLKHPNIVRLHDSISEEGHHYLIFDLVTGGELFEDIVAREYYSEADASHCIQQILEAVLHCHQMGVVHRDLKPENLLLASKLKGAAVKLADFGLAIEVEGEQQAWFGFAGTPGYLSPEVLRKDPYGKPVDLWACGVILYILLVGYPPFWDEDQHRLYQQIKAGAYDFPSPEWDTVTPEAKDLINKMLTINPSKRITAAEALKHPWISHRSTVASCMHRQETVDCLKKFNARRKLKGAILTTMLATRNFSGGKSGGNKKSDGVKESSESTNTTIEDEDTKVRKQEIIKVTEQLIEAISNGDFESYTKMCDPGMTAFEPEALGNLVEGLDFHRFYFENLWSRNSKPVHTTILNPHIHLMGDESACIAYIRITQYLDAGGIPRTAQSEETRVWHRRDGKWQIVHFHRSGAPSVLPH
With C[N+](C)(C)CCCCC(=O)[O-] the inhibition was -6%.
C/C=C/c1cc(OC)c2c(c1)C(C)C(c1ccc(O)c(OC)c1)O2 (centres unmarked) gave an inhibition of 26%.
O=C(O)[C@H](O)Cc1ccc(O)c(O)c1 gave an inhibition of 12%.
With COc1cc(C(=O)NS(=O)(=O)c2ccccc2C)ccc1Cc1cn(C)c2ccc(NC(=O)OC3CCCC3)cc12 the inhibition was -3%.
C=C1C[C@@]23CC[C@H]4[C@@](C)(CCC[C@@]4(C)C(=O)O)[C@@H]2CC[C@]1(O[C@@H]1O[C@H](CO)[C@@H](O)[C@H](O)[C@H]1O[C@@H]1O[C@H](CO)[C@@H](O)[C@H](O)[C@H]1O)C3 has an inhibition of -20%.
The inhibition of OC[C@H]1O[C@@H](Oc2cc(/C=C/c3cc(O)cc(O)c3)ccc2O)[C@H](O)[C@@H](O)[C@@H]1O is reported as -9%.
The inhibition of CC(/C=C/C(=O)NO)=C\[C@@H](C)C(=O)c1ccc(N(C)C)cc1 is reported as 14%.
C[C@@H]1O[C@@H](Oc2cc(O)c3c(c2)O[C@H](c2ccc(O)c(O)c2)[C@@H](O)C3=O)[C@H](O)[C@H](O)[C@H]1O gave an inhibition of 13%.

Sample 3 — cell line: mouse MPNST tumor cells; technique: high-content nuclear imaging; item: cell number; concentration: 10 µM; time: 12 h; setting: mean of 2 replicates; reference: plate mean; reading: higher = more cells
With O=C1[C@H](CC[C@H](O)c2ccc(F)cc2)[C@@H](c2ccc(O)cc2)N1c1ccc(F)cc1 the nuclei count was 3.71 z-score and 3.66 z-score.
CNCCN1CCC(c2cc(CN(C)C(=O)c3cccc(Oc4ccccc4)c3)ccn2)CC1 gave a nuclei count of 0.628 z-score and 0.646 z-score.
With O=C(OCCN1CCOCC1)C1(c2ccccc2)CCCCC1 the nuclei count was 0.528 z-score.
With CCCCCCCCOc1ccc(-c2noc([C@@H]3CCC[N+]3=C(N)N)n2)cc1C(F)(F)F the nuclei count was -1.57 z-score.
CCCOc1ccccc1-c1nc2[nH]nnc2c(=O)[nH]1 gave a nuclei count of 0.353 z-score and -0.166 z-score.
With COc1ccc2cc([C@H](C)C(=O)O)ccc2c1 the nuclei count was -0.0127 z-score.
CO[C@@]1(NC(=O)C2SC(=C(C(N)=O)C(=O)O)S2)C(=O)N2C(C(=O)O)=C(CSc3nnnn3C)CS[C@@H]21 (some centres unmarked) has a nuclei count of 0.321 z-score.
With N#C[C@@H]1C[C@@H]2C[C@@H]2N1C(=O)[C@@H](N)C12CC3CC(CC(O)(C3)C1)C2 the nuclei count was 2.08 z-score and 0.928 z-score.
For CCCC[C@@H](C=O)NC(=O)[C@H](CC(C)C)NC(=O)OCc1ccccc1, the nuclei count was 1.29 z-score.
For COc1ccc(-c2cc(=O)c3c(O)cc(O[C@@H]4O[C@H](CO[C@@H]5O[C@@H](C)[C@H](O)[C@@H](O)[C@H]5O)[C@@H](O)[C@H](O)[C@H]4O)cc3o2)cc1O, the nuclei count was 0.544 z-score.
The nuclei count of CCCC(CCC)C(=O)NCc1ccc2c(cnn2-c2ccccc2OC)c1 is reported as 1.55 z-score.
For COc1ccc2c(c1)N(C[C@H](C)CN(C)C)c1ccccc1S2, the nuclei count was -1.16 z-score.
With O=C(O)C[C@@]1(O)C[C@@H](CCCCCCc2ccc(Cl)cc2Cl)OC1=O the nuclei count was 0.296 z-score.
With CC(=O)NNC(=O)N1Cc2ccccc2Oc2ccc(Cl)cc21 the nuclei count was 0.189 z-score.
C#CCCCCCCCCCCCCCCCC(=O)O has a nuclei count of -0.185 z-score.
With CC(=O)SCC(Cc1ccccc1)C(=O)NCC(=O)OCc1ccccc1 (centres unmarked) the nuclei count was -0.326 z-score.
For COc1cc(N2CCC(O)CC2)ccc1Nc1cc(Nc2ccccc2S(=O)(=O)C(C)C)c2cc[nH]c2n1, the nuclei count was 1.53 z-score.
O=C(O)c1ccccc1Nc1cccc(OCc2ccc3ccccc3n2)c1 has a nuclei count of -0.414 z-score.
CC(=O)CCCCn1c(=O)c2c(ncn2C)n(C)c1=O gave a nuclei count of 1.1 z-score.

Sample 4 — effect on: enzyme activity; mode: inhibitor; concentration: 0.5 µM; reference: control
Target: MAP kinase-interacting serine/threonine-protein kinase 1 (MKNK1, Homo sapiens, UniProt Q9BUB5)
Chain of UniProt Q9BUB5 (whole entry, looked up): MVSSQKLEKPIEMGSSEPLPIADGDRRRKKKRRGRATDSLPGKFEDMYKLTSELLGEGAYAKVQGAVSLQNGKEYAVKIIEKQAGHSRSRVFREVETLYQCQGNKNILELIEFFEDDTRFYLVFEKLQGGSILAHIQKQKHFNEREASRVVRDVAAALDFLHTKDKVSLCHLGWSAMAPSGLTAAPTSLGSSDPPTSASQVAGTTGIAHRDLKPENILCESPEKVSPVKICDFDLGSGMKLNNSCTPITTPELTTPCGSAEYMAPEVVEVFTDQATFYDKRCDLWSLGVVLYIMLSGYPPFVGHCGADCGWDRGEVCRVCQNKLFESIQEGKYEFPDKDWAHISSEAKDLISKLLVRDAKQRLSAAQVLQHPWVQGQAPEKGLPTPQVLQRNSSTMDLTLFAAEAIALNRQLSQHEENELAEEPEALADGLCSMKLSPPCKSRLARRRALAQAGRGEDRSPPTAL
The remaining activity of COc1cc2c(cc1OC)-c1[nH]nc(Nc3cccc(F)c3)c1C2 is reported as 89.8%.
COc1cc2ncnc(Nc3cccc(Cl)c3)c2cc1OC gave a remaining activity of 80.8%.
Cc1nc2cc3nc(-c4cccs4)cnc3cc2n1C has a remaining activity of 92.7%.
With O=c1cc(-c2cccc3c2Sc2ccccc2S3)oc(N2CCOCC2)c1 the remaining activity was 99.5%.
With Nc1cccc(-c2cc3c(Oc4cccc(O)c4)ncnc3[nH]2)c1 the remaining activity was 87.6%.
For O=C1c2ccccc2-c2n[nH]c3cccc1c23, the remaining activity was 97%.
The remaining activity of N#C/C(=C\c1ccc(O)c(O)c1)C(=O)NCc1ccccc1 is reported as 77.8%.
The remaining activity of CCOc1nc(NC(=O)Cc2cc(OC)ccc2OC)cc(N)c1C#N is reported as 105%.
For c1ccc(-c2[nH]ncc2-c2ccnc3ccccc23)nc1, the remaining activity was 75.9%.
For COc1cc2ncnc(Nc3ccc(O)c(Br)c3)c2cc1OC, the remaining activity was 32.7%.
With O=C(Nc1cccc(Nc2nccc(Nc3cccc(C(F)(F)F)c3)n2)c1)C1CC1 the remaining activity was 91%.
The remaining activity of Cc1cc2ncc(-c3ccccc3)nc2cc1C is reported as 80.3%.
Cn1nc2c3c(cccc31)C(=O)c1ccccc1-2 has a remaining activity of 105%.
c1ccc(-c2cnc(Nc3ccc(OCCN4CCCC4)cc3)s2)cc1 gave a remaining activity of 64.7%.
The remaining activity of CCN(CC)C(=O)c1ccc(Nc2nc(OCC3CCCCC3)c3[nH]cnc3n2)cc1 is reported as 97.5%.
CCN(CC)CCNC(=O)c1c(C)[nH]c(/C=C2\C(=O)Nc3ccc(F)cc32)c1C gave a remaining activity of 99.3%.
With CN([C@@H](Cc1ccc(OS(=O)(=O)c2cccc3cnccc23)cc1)C(=O)N1CCN(c2ccccc2)CC1)S(=O)(=O)c1cccc2cnccc12 the remaining activity was 106%.
O=C1C(Cl)=C(N2C(=O)CCC2=O)C(=O)c2ccccc21 has a remaining activity of 135%.
For CCN(CC)CCNC(=O)c1c(C)[nH]c(/C=C2\C(=O)Nc3ccc(Cl)cc32)c1C, the remaining activity was 75.4%.
With O=C(NC(NC(=S)Nc1ccc(F)c([N+](=O)[O-])c1)C(Cl)(Cl)Cl)C(c1ccccc1)c1ccccc1 (centres unmarked) the remaining activity was 100%.
Ic1cccc(CSc2nnc(-c3ccncc3)o2)c1 gave a remaining activity of 109%.
For CN(C)C[C@H]1CCn2c(c(C3=C(c4cn(C)c5ccccc45)C(=O)NC3=O)c3ccccc32)C1, the remaining activity was 100%.
The remaining activity of C[C@@H]1CCN(C(=O)CC#N)C[C@@H]1N(C)c1ncnc2[nH]ccc12 is reported as 89.9%.
The remaining activity of Cc1cn(-c2cc(NC(=O)c3ccc(C)c(Nc4nccc(-c5cccnc5)n4)c3)cc(C(F)(F)F)c2)cn1 is reported as 102%.
N#Cc1c(NC(=O)c2cccc3ccccc23)sc2c1CCCC2 has a remaining activity of 106%.

For quick reference, copied from above (sample 2):
C/C=C/c1cc(OC)c2c(c1)C(C)C(c1ccc(O)c(OC)c1)O2 (centres unmarked) gave an inhibition of 26%.
With COc1cc(C(=O)NS(=O)(=O)c2ccccc2C)ccc1Cc1cn(C)c2ccc(NC(=O)OC3CCCC3)cc12 the inhibition was -3%.
C[C@@H]1O[C@@H](Oc2cc(O)c3c(c2)O[C@H](c2ccc(O)c(O)c2)[C@@H](O)C3=O)[C@H](O)[C@H](O)[C@H]1O gave an inhibition of 13%.
The inhibition of OC[C@H]1O[C@@H](Oc2cc(/C=C/c3cc(O)cc(O)c3)ccc2O)[C@H](O)[C@@H](O)[C@@H]1O is reported as -9%.
O=C(O)[C@H](O)Cc1ccc(O)c(O)c1 gave an inhibition of 12%.
